# Assay results of several laboratories.
# Parts stem from different laboratories: compare values within a part only. Changes are numbered by the printed parent chain.

# Study 1
# Target: ABI1, truncated, D143A, DHFR fusion (Arabidopsis thaliana)
# Method: DHFR PCA, deep sequencing
# Matrix: yeast
# Notes: methotrexate growth selection, single substitutions
# Together with: (+)-ABA 0.11 µM
# Relative to: wild-type fitted maximum
# Direction: higher = stronger binding
# Starting sequence: PYL1, truncated, DHFR fusion (Arabidopsis thaliana); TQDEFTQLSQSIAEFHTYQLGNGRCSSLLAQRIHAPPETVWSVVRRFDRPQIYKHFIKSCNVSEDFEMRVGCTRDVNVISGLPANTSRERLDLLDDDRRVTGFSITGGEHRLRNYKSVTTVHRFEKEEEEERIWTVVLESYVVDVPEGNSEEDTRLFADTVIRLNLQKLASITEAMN
Substitution,relative binding score
T101I,78.6%
F56G,2.1%
L112S,-5.97%
G23S,5.94%
R132G,69%
D96V,4.86%
G148P,5.95%

# Study 2
# Target: Interferon regulatory factor 7, full length, phosphomimetic (IRF7, Homo sapiens, UniProt Q92985, residues 1-503, S101K/S471D/S472D/S475D/S476D/S477D/S483D/S484D/S487D)
# Method: protein-binding microarray
# Form: double-stranded DNA, one strand shown
# Matrix: in vitro
# Concentration: 250 nM
# Notes: 60-bp whole probe
# Together with: salmon DNA 0.4 mg/ml
# Relative to: random background probes
# Direction: higher = stronger binding
# Constant ends, left off below: GCCTAGCAC … GTCTTGATTCGCTTGACGCTGCTG
# Construct (chain): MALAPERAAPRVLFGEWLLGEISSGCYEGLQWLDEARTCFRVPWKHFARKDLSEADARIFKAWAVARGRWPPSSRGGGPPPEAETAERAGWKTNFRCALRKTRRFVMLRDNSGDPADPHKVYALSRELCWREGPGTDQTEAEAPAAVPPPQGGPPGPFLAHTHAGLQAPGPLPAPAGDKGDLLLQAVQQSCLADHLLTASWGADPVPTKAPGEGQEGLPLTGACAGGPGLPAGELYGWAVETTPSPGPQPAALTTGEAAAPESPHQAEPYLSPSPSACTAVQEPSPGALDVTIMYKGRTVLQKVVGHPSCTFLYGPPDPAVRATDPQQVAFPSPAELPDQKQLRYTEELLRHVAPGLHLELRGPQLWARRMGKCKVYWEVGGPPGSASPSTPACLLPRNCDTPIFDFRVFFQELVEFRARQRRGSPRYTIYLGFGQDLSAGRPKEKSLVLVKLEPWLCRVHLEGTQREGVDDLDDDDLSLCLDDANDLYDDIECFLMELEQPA
Sequence,log fluorescence [z-score]
TTAGGTATCGACTATCGGCTAGTGCTA,0.2
GTCGGACTGGGGTTTCGGGACGTGCTA,1.43
TACGGTATCGACTTTCGGGACGTGCTA,1.32
CTAGAACTGAGTCTCGATTAGTGCTAG,1.27
GACGATTTCAGTTCCGTGACGTGCTAG,0.549
TTAGAACTGAGATTCGATTAGTGCTAG,1.66
TTAGGTATCGGTACTGGGTTAGTGCTA,0.177
TTAGGACTGGGGACTGGGATAGTGCTA,-0.728
TGAGGACTGCTTTTCCTTTAGTGCTAG,0.506
TTAGGTTTCGAGTATCGGTTAGTGCTA,6.51
GACGGTCTCCTTATCCTGCCGTGCTAG,0.113
TTAGCTTTCGGGACTGGATTAGTGCTA,0.0517
ATGAGTCTCAATATTAGAGTGTGCTAG,0.0544
TTAGGTAACGGGTATCGGTTAGTGCTA,0.976

# Study 3
# Target: CCNE2, cyclin fold, Cln2 fusion (human)
# Method: yeast growth competition, sequencing
# Matrix: yeast
# Notes: weak parent motif
# Relative to: not given
# Direction: higher = stronger binding
# Starting sequence: ORC1 docking peptide (human); PRARKRLELGNLG
Substitution,normalised enrichment score
PRARKRLGLGNLG [E8G],0.562
PRARKRAELGNLG [L7A],0.0432
TRARKRLELGNLG [P1T],0.506
ERARKRLELGNLG [P1E],0.862
PRARVRLELGNLG [K5V],0.0845
PRARKRLEKGNLG [L9K],0.346
PRARKRLPLGNLG [E8P],0.782
PRARKRLELWNLG [G10W],1.85
PRARKRLELGNLA [G13A],-0.182
PEARKRLELGNLG [R2E],0.351
PRARKELELGNLG [R6E],-0.302
PRARKRLELGNGG [L12G],0.25
SRARKRLELGNLG [P1S],1.14

# Other studies, line by line
Molecule,target,test,system,conditions,scale,measurement,value
"PhoQ, residues 284 288 289 292 302 303 MLMVEA","PhoP, residues 12 14 15 18 19 LHHSG (Escherichia coli, UniProt P23836)","Sort-seq, item: YFP reporter",E. coli,"PhoQ-PhoP variant library, together with: 10 µM Mg2+","relative to: high Mg2+ state, higher = stronger signaling",fold induction,1.02

# For quick reference, copied from above (study 3):
Substitution,normalised enrichment score
PRARKRLPLGNLG [E8P],0.782
PRARKRLGLGNLG [E8G],0.562
PRARKELELGNLG [R6E],-0.302
PRARKRAELGNLG [L7A],0.0432
ERARKRLELGNLG [P1E],0.862
